Assay results collected from several papers.
Each numbered part is a random draw from the data of one study; scales do not carry over between parts. Substitutions count along the parent as printed.

Sample 1 — target: CCND2, cyclin fold, Cln2 fusion (human); method: yeast growth competition, sequencing; medium: yeast; notes: weak parent motif; baseline: not given; reading: higher = stronger binding
Starting sequence: SLBP docking peptide (human); ARYKRKLLINDFG; partner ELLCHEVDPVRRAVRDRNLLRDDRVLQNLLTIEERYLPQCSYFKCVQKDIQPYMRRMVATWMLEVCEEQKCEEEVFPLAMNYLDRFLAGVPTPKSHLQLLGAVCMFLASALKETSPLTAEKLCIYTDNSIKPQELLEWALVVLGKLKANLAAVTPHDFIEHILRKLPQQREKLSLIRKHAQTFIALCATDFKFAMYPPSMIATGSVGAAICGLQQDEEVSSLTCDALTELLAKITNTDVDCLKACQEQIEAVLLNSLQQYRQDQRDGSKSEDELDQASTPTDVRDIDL
`ARYKQKLLINDFG [R5Q]` — result for “normalised enrichment score”: -0.109.
`ARYKRKWLINDFG [L7W]` — result for “normalised enrichment score”: -0.233.
`ARYKRKLLITDFG [N10T]` — result for “normalised enrichment score”: 0.0389.
`ARYKRKLWINDFG [L8W]` — result for “normalised enrichment score”: 0.588.
`ARYKRKLLINDFH [G13H]` — result for “normalised enrichment score”: 0.333.
Under “normalised enrichment score”, `ARYKRKLLNNDFG [I9N]` is recorded as 0.311.
For `ARYKRKLLIIDFG [N10I]`, “normalised enrichment score” read 0.149.
Under “normalised enrichment score”, `ARYKRKLLIDDFG [N10D]` is recorded as 0.154.
For `ARYKRELLINDFG [K6E]`, “normalised enrichment score” read 0.263.
For `ARVKRKLLINDFG [Y3V]`, “normalised enrichment score” read 0.161.
For `ARKKRKLLINDFG [Y3K]`, “normalised enrichment score” read -0.00727.
`ARYKRKLLINAFG [D11A]` — result for “normalised enrichment score”: 0.107.
`ARTKRKLLINDFG [Y3T]`: “normalised enrichment score” -0.0462.
`ARYKRVLLINDFG [K6V]`: “normalised enrichment score” 0.504.
`ARRKRKLLINDFG [Y3R]` — result for “normalised enrichment score”: -0.0455.
For `ACYKRKLLINDFG [R2C]`, “normalised enrichment score” read 0.146.
`ARYKRKLLINDFE [G13E]`: “normalised enrichment score” 0.422.
`ARYKRKLLINDFK [G13K]` — result for “normalised enrichment score”: 0.534.
For `ARYKRKLCINDFG [L8C]`, “normalised enrichment score” read -0.12.
For `ARYKRKLEINDFG [L8E]`, “normalised enrichment score” read 0.427.
Under “normalised enrichment score”, `ARYKRKLLINRFG [D11R]` is recorded as 0.189.
For `ARYKRGLLINDFG [K6G]`, “normalised enrichment score” read 0.402.

Sample 2 — method: protein binding microarray; molecule type: double-stranded DNA, one strand shown; medium: in vitro; tested at: not given; baseline: not given; reading: higher = stronger binding
Target: Histone acetyltransferase KAT6A, winged helix 1, GST fusion (KAT6A, Homo sapiens, UniProt Q92794, residues 1-85)
Notes: 8-mer, flanks averaged, mean of 2 arrays, mostly near background
Residues (chain): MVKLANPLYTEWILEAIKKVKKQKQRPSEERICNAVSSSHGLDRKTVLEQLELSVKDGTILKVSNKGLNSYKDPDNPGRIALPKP
`GCGACACC` gave an E-score of 0.223.
`AGTCAGTC` gave an E-score of -0.171.
For `AACCTCTA`, the E-score was 0.0336.
With `CAAAAACC` the E-score was 0.0508.
For `GGACCTTA`, the E-score was 0.0325.
With `ATTCGGGG` the E-score was 0.113.
The E-score of `CTGGTTCC` is reported as -0.0863.
`TAATTCGA` has an E-score of -0.232.
The E-score of `AAGACAAC` is reported as -0.11.
For `CCTATGCC`, the E-score was 0.0485.
With `ATGTGCAG` the E-score was -0.17.
With `CCCAGTGA` the E-score was -0.243.
`AAACGCTG` gave an E-score of -0.00125.
With `CCGGGCAG` the E-score was 0.246.
The E-score of `CTGAAATC` is reported as -0.152.
`ACCCGGTC` has an E-score of 0.291.
The E-score of `GGTTAACC` is reported as -0.0316.
For `ACGAAGAC`, the E-score was -0.14.
The E-score of `ACGCAAAG` is reported as -0.0462.
With `CAAACGAC` the E-score was -0.148.
With `CTCCATTC` the E-score was -0.182.
For `CTGTAAAG`, the E-score was -0.0847.
The E-score of `GTCTGATA` is reported as -0.0418.
For `CAGATGGC`, the E-score was -0.0282.
`AATAATTG` gave an E-score of -0.105.

Sample 3 — method: RNA Bind-n-Seq; molecule type: RNA; medium: in vitro; tested at: 365 nM; baseline: no-protein control; reading: higher = stronger binding
Target: RNA binding protein fox-1 homolog 2, RRM domain, GST-SBP tag (RBFOX2, Homo sapiens, UniProt O43251-10, residues 100-194)
Notes: natural RNA segment, single round, ends assumed
All sequences stand within: GGGAGUUCUACAGUCCGACGAUC … UGGAAUUCUCGGGUGCCAA
Construct (chain): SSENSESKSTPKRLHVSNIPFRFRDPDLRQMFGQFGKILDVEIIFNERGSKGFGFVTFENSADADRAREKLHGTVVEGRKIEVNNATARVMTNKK
Under “RBNS enrichment (R)”, `CUUUGACAUAACUAGGAUCCAUUAUUUCCCCUGAAGGCUUCUUGUUAGAAAAUAGUACAGUUACAACCAAUAGGAACAACAAAAAGAAAAAGUUUGUGACAUUGUAGUAG` is recorded as 0.545.
Under “RBNS enrichment (R)”, `GGAGUAAAAACUGCUUUAUAGCUCCCAAAUUAGGAAGAGAAGAGCAGAAAUCCUCUGGGGCAUUUAACCAUCUGGCAGAAUUGUUGCUGCACCCUUAUCCCAGUUAUAAG` is recorded as 0.548.
`CUAGAGAACUAUGUUCUUCCCUGACUUUAGGGAAGGUGAAUGUGUUCCCGUCCUCCCGCAGUCAGAAAGGAGACUCUGCCUCCCUCCUCCUCACUGAGUGCCUCAUCCUA`: “RBNS enrichment (R)” 1.07.
For `AAGCUCUAGCUUAAUGUCUAUGAUUUGUUCUUUGACAUUAAGGAAGGUAAGGAUUGGUCAGAGGAUGUAACUUGAUGUGAGCAGUAGUAAACCUGUUUUAGAUAUCAUAC`, “RBNS enrichment (R)” read 0.289.
`AUAGGGACAACCUCCUUGCUGGCCAACACCUGCUGGAGCAGGGGCACAGGUCCCAGCAACUGAUCCUCAGUGGAUGGGUCUGCAGCCAAAGCCUUAAUGGGCUCUCUUUU` — result for “RBNS enrichment (R)”: 0.255.
`GAUUCCCCUCAUCCGAACUGCUGUGUCCAACCUCCAUUGAAGAGCCUUUUCUCCCUCCCUCUCCCUCUGCAAGCCAAGCUGCAUGCACCCAUGCAUGAGUGGUUCUUGCA`: “RBNS enrichment (R)” 11.1.
For `AUCAUGAUUUUGCAGAACCUUUGGUUUGGACAGUUCUGUUCUUUUGGAUUUGGAAUAGAUUACAUAGGAGUAUGAAGUAUGCUGUAAAUAAAAGUACAAGCCAGUGCUUU`, “RBNS enrichment (R)” read 0.976.
For `ACUCUGUCAUCCUAUUGGCUGCUUCCCUCUACUAUUUGUAAAAUGUGUAGUGAAUUAUAACAACCUGAAGAUUGCUUUCUGAAACUGUUUUUAAGUUAAGGGAAAAAGUA`, “RBNS enrichment (R)” read 0.276.
Under “RBNS enrichment (R)”, `UUUGGAAGAGAGUUUUUCAUCUUAGAGAUUGGUGAACAAGUGUGAGGGUGUGAGAAACUCACAGAAUACAAAUUUGCCUGUAUGUUUUGUGGGUUUUUUUUUUUCCUUUC` is recorded as 1.15.
For `AAAACACUUCUGACCCAUAGCUCAGUAUGUCUGAAUUCCAGAGGUCACAUCAGCAUCUUUCUGCUUUGAAAACUCUCACAGCUGUGGCUGCUUCACUUAGAUGCAGUGAG`, “RBNS enrichment (R)” read 0.361.
`ACAUGUCUACCAAAAAAUGAUGUGGAGGUUUAGGUGGGAUUCACCCUUAGUACAAUUCUUAGUGUCAAUAGCACAGCACCCCAGCUUGUACAAGUCAUUCUCUGUUAGGA`: “RBNS enrichment (R)” 0.394.
`AAAGUUACUGUGGUAUCUAUGAGUUAUCAUCUUAGCUGUGUUAAAAAUGAAUUUUUACUAUGGCAGAUAUGGUAUGGAUCGUAAAAUUUUAAGCACUAAAAAUUUUUUCA` — result for “RBNS enrichment (R)”: 0.738.

Sample 4 — method: DHFR PCA, deep sequencing; medium: yeast; with: (+)-ABA 4.8 µM; baseline: wild-type fitted maximum; reading: higher = stronger binding
Target: ABI1, truncated, D143A, DHFR fusion (Arabidopsis thaliana)
Notes: methotrexate growth selection, single substitutions
Starting sequence: PYL1, truncated, DHFR fusion (Arabidopsis thaliana); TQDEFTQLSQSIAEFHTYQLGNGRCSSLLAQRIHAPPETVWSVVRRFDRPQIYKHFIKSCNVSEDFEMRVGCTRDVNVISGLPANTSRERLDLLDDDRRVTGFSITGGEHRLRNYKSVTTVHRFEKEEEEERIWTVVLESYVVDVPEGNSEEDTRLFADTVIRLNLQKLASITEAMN; partner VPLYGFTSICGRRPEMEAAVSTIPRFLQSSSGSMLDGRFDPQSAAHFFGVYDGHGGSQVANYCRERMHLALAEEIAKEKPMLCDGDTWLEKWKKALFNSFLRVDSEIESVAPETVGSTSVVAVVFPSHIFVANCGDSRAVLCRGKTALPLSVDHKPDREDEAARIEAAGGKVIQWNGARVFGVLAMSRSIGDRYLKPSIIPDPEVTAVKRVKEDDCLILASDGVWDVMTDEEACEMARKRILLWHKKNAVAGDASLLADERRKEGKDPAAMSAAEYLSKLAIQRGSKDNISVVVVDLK
`C60I` — result for “relative binding score”: 32.5%.
`S80F` — result for “relative binding score”: 41.8%.
Under “relative binding score”, `P37F` is recorded as 13%.
`G148T` — result for “relative binding score”: 27.6%.
`D75F` — result for “relative binding score”: 74.9%.
`T86Q` — result for “relative binding score”: 46.1%.
For `E129R`, “relative binding score” read 66.1%.
`T173I` — result for “relative binding score”: 38%.
`E125Q` — result for “relative binding score”: 84.1%.
For `G23H`, “relative binding score” read 55.7%.
Under “relative binding score”, `Q10E` is recorded as 84.5%.
Under “relative binding score”, `Q7S` is recorded as 73.4%.
`E14R`: “relative binding score” 44%.
`I57R` — result for “relative binding score”: 1.95%.
`E128S`: “relative binding score” 80.5%.
For `T160V`, “relative binding score” read 15.2%.
`L94M` — result for “relative binding score”: 55.3%.

Sample 5 — method: RNA Bind-n-Seq; molecule type: RNA; medium: in vitro; tested at: 200 nM; notes: whole 134-nt RNA, ends assumed; with: 150 mM LiCl; baseline: input library; reading: higher = stronger binding; all molecules: 7-deaza-guanosine replaces G
Target: Fragile X messenger ribonucleoprotein 1, C-terminal low-complexity region (Fmr1, Mus musculus, UniProt P35922)
All sequences stand within: GGGAGUUCUACAGUCCGACGAUC … UGGAAUUCUCGGGUGUCAAGG
`ACCAUGCAGGUGAGCAUCUUUGGGAAGUGGGGCAAGGGGGGGAUAGGGAGGGGGGUAACACUUUGGGAACAGGUGGUCCCAGGUCGUUUC` gave a log2 enrichment of 1.45.
For `UCCUGUGCUACACAUCGUAUGUACCGAAUCGGGGCCCCCGGCCCCCGGGGCCCCCGGGGAAAGUAUUAUGUUACGCCGUUCGGAUCUGCA`, the log2 enrichment was -2.84.
With `UCCUGUGCUACACAUCGUAUGUACCGAAUCGGGGUUUUUUUGGGGUUUGGGGAAAGGGGAAAGUAUUAUGUUACGCCGUUCGGAUCUGCA` the log2 enrichment was -1.06.
With `CAAGUCCUGUGCUACACAUCGUAUGUACCGAAUCGGGGUUUGGGUUUGGGUUUGGGAAAGUAUUAUGUUACGCCGUUCGGAUCUGCACUU` the log2 enrichment was -1.58.
`GGGACGUCAGCAUCGGCAUCAAGUGUGCCCCUGGAGUGGUAGGCCCCGCCGAAGCUGACAUCGACUUCGACAUCAUCCGCAAUGACAAUG` has a log2 enrichment of -3.25.
For `AGUCCUGUGCUACACAUCGUAUGUACCGAAUCGGGUGGGUUUUUUUGGGUUUUUGGGAAAGUAUUAUGUUACGCCGUUCGGAUCUGCACU`, the log2 enrichment was -0.919.
For `ACCAUGCAGGUGGGCAUCUUUGGGAAGUGGGGCAAGGGGGGGAUAGGGAGGGGGGUAACACUUUGGGAACAGGUGGUCCCAGGUCGUUAC`, the log2 enrichment was 0.862.
The log2 enrichment of `CCUGUGCUACACAUCGUAUGUACCGAAUCAAAUUUUUUUAAACCCCCCCAAACCCCCAAAAAAGUAUUAUGUUACGCCGUUCGGAUCUGC` is reported as 1.64.
With `ACCAUGCAGGUGGGCAUCUUUGGGAAGUGGGGCAAGGGGGGGAUAGGGAGGGCGGUAACACUUUGGGAACAGGUGGUCCCAGGUCGUUUC` the log2 enrichment was 0.605.
With `UGGCCCUGGUCGCAUGCGGGGAGGAAGAGGUGGCCUCAUGGAUCGUGGUGGUCCCGGUGGAAUGUUCAGAGGUGGCCGUGGUGGAGACAG` the log2 enrichment was 0.15.
For `UCAAGUCCUGUGCUACACAUCGUAUGUACCGAAUCGGUGGAAAAAGGUUUUUGGAAAGUAUUAUGUUACGCCGUUCGGAUCUGCACUUCC`, the log2 enrichment was -1.55.

Some of these lines once more (sample 2):
With `ATGTGCAG` the E-score was -0.17.
With `CCCAGTGA` the E-score was -0.243.
`AAACGCTG` gave an E-score of -0.00125.
With `CCGGGCAG` the E-score was 0.246.
The E-score of `CTGAAATC` is reported as -0.152.
`ACCCGGTC` has an E-score of 0.291.
